Assay results pooled from the literature.
Protocols differ between the studies behind these lines. ± marks the error that the study gave.
rep main protease: Replicase polyprotein 1ab, main protease (rep, Human coronavirus NL63, UniProt P0C6X5)
Genome polyprotein protease: Genome polyprotein, protease (Enterovirus A71, UniProt Q66478)
CYP2B6: Cytochrome P450 2B6 (CYP2B6, Homo sapiens, UniProt P20813)

| SMILES | target | assay | test system | conditions | IC50 [µM] |
| --- | --- | --- | --- | --- | --- |
| CCCCCc1cc(O)c2c(c1)OC(C)(C)C1CCC(C)=CC21 (single isomer, unassigned; (-)) | UDP-glucuronosyltransferase 2B4 (UGT2B4, Homo sapiens, UniProt P06133) | enzyme activity, inhibitor | recombinant UGT2B4 microsomes from HEK293 | pH 7.4, glucuronidation, with: codeine | 0.47 ± 0.11 |
| C=CC(=O)N1CCN(c2cc(-c3ccc(C4CCC4)cc3)ncc2C(=O)N[C@H](Cc2ccccc2)C(=O)NC)C(C)C1 (stereo partly drawn) | rep main protease | enzyme activity, inhibitor |  |  | > 100 |
| O=c1[nH]c2cc(Cl)cc(Cl)c2c(O)c1Sc1nnnn1-c1ccc(O)cc1 | Genome polyprotein protease | enzyme activity, inhibitor |  |  | > 50 |
| CCCCCCCCC/C=C\CCCc1cc(=O)c2ccccc2n1C | UDP-N-acetylmuramoyl-L-alanyl-D-glutamate--2,6-diaminopimelate ligase (murE, Mycobacterium tuberculosis, UniProt P9WJL3) | enzyme activity, inhibitor, absorbance |  |  | 52 |
| C[C@@H](CN1CCC(n2c(=O)[nH]c3cc(Br)ccc32)CC1)NC(=O)[C@@H]1C[C@H]1c1ccccc1 | Phospholipase D (Pseudomonas aeruginosa, UniProt Q9HYC2) | enzyme activity, inhibitor |  |  | 26.1 |
| C=CCC(NC(=O)C1CN(C(=O)C(CC(=C)C)NC(=O)C=C)CC1c1cccc(C(F)(F)F)c1)C(=O)NC (stereo not drawn) | rep main protease | enzyme activity, inhibitor |  |  | > 100 |
| Cc1ccccc1N1C(=O)/C(=C/c2ccc(OCc3cccc(C(=O)O)c3)cc2)C(=O)NC1=S | Tyrosine-protein phosphatase non-receptor type 6 (PTPN6, Homo sapiens, UniProt P29350) | enzyme activity, inhibitor |  |  | 23.2 |
| O=C1C2=C(Nc3[nH]c(=O)[nH]c(=O)c3C23C(=O)Nc2ccc(Cl)cc23)c2ccccc21 (stereo not drawn) | Urease (Canavalia ensiformis, UniProt P07374) | enzyme activity, inhibitor, absorbance |  |  | 5.56 |
| C=CC(=O)NC(CC(=C)C)C(=O)N1CC(C(=O)NC(C(=O)NC)C(C)CC)C(c2cccc(C(F)(F)F)c2)C1 (stereo not drawn) | rep main protease | enzyme activity, inhibitor |  |  | > 100 |
| O=C1C[C@@H](c2ccc(O[C@@H]3O[C@H](CO)[C@@H](O)[C@H](O)[C@H]3O[C@@H]3OC[C@](O)(COC(=O)c4c[nH]c5ccccc45)[C@H]3O)cc2)Oc2cc(O)ccc21 | Neuraminidase (NA, Influenza A virus, UniProt P03468) | enzyme activity, inhibitor |  |  | 0.34 |
| C=CC(=O)NC(CC(=C)C)C(=O)N1CC(C(=O)NC(CCSC)C(=O)NC)C(c2cccc(C(F)(F)F)c2)C1 (stereo not drawn) | rep main protease | enzyme activity, inhibitor |  |  | > 100 |
| Cc1sc2c(c1C)C(c1ccc(Cl)cc1)=N[C@@H](CC(=O)OC(C)(C)C)c1nnc(C)n1-2 | CREB-binding protein (CREBBP, Homo sapiens, UniProt Q92793) | inhibitor, biochemical |  |  | > 10 |
| CCCCCc1cc(O)cc2c1Oc1cc(O)cc(C(=O)CCCC)c1C(=O)O2 | Endonuclease 8 2 (nei2, Mycobacterium tuberculosis, UniProt P9WNC1) | AP site cleavage, inhibitor |  | with: THF-containing DNA substrate | 64.8 |
| CCCCCc1cc(O)c2c(c1)OC(C)(C)C1CCC(CO)=CC21 (stereo not drawn) | CYP2B6 | enzyme activity, inhibitor | microsomes from HEK cells | 30 min, preincubation with NADPH | 6.1 ± 1 |
| OC(c1ccccc1)(c1ccccc1)[C@H]1CCCN1 | Intermediate conductance calcium-activated potassium channel protein 4 (KCNN4, Homo sapiens, UniProt O15554) | ion current, inhibitor, patch clamp |  |  | > 50 |
| CCn1c(NCc2ccc(N3N=C(c4ccccc4)CC3c3ccccc3)cc2)nc2ccccc21 (stereo not drawn) | Genome polyprotein protease | enzyme activity, inhibitor |  |  | 4.7 |
| C=C(C)C1C2OC(=O)C1C1(O)CC3OC34C(=O)OC2C14C (stereo not drawn) | GABA-A receptor; alpha-1/beta-2/gamma-2 (Homo sapiens, UniProt P14867+P18507+P47870, V284A) | ion current, antagonist, two-electrode voltage clamp |  | oocytes | 3.55 |
| N=C(N)Nc1ccc2[nH]c3c(c2c1)C[C@@]1(O)[C@H]2Cc4ccc(O)c5c4[C@@]1(CCN2CC1CC1)[C@H]3O5 | Carbamate kinase (Giardia intestinalis, UniProt A8BB85) | enzyme activity, ATP luminescence |  |  | 1.83 |
| CCCCCc1cc(O)c2c(c1)OC(C)(C)C1=C2[C@@H](O)[C@@](C)(O)CC1 | rat intestinal α-glucosidase | enzyme activity, inhibitor |  |  | 310 |
| COc1ccccc1/N=C/c1nc(-c2ccccc2)oc1OC(C)=O | Genome polyprotein protease | enzyme activity, inhibitor |  |  | > 50 |
| CCCCCc1cc(O)c2c(c1)OC(C)(C)C1CCC(C)=CC21 (single isomer, unassigned; (-)) | CYP2B6 | inhibitor | human, pooled liver microsomes | pH 7.4, with: bupropion | 0.97 ± 0.12 |
